Measurements from different studies.
Each numbered part is a random draw from the data of one study; scales do not carry over between parts.

Study 1 — method: protein binding microarray; molecule type: double-stranded DNA, one strand shown; sample: in vitro; concentration: not given; baseline: not given; reading: higher = stronger binding; measurement: E-score
Target: Histone acetyltransferase KAT6A, both winged helices, GST fusion (KAT6A, Homo sapiens, UniProt Q92794, residues 1-181)
Setting: 8-mer, flanks averaged, mean of 2 arrays, mostly near background
Residues (chain): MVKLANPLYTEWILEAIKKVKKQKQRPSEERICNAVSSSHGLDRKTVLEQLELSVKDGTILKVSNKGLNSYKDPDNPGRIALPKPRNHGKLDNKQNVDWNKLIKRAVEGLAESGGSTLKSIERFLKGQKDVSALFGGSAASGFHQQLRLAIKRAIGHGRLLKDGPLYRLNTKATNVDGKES
ATTGCAAT: 0.155
CACCCCGA: -0.0524
CGCGGTAG: 0.299
CATATCTC: -0.125
CTTTAGGC: 0.0498
ATGCACAG: -0.0459
ACAAATCT: -0.101
CCTCGAGG: -0.193
CAGGACTA: -0.15

Study 2 — method: universal PBM; molecule type: double-stranded DNA, one strand shown; sample: in vitro; concentration: 600 nM; reading: higher = stronger binding; measurement: E-score
Target: Sal-like protein 4, full length isoform A (SALL4, Homo sapiens, UniProt Q9UJQ4, residues 1-1053)
Sequence of UniProt Q9UJQ4 (whole entry, looked up): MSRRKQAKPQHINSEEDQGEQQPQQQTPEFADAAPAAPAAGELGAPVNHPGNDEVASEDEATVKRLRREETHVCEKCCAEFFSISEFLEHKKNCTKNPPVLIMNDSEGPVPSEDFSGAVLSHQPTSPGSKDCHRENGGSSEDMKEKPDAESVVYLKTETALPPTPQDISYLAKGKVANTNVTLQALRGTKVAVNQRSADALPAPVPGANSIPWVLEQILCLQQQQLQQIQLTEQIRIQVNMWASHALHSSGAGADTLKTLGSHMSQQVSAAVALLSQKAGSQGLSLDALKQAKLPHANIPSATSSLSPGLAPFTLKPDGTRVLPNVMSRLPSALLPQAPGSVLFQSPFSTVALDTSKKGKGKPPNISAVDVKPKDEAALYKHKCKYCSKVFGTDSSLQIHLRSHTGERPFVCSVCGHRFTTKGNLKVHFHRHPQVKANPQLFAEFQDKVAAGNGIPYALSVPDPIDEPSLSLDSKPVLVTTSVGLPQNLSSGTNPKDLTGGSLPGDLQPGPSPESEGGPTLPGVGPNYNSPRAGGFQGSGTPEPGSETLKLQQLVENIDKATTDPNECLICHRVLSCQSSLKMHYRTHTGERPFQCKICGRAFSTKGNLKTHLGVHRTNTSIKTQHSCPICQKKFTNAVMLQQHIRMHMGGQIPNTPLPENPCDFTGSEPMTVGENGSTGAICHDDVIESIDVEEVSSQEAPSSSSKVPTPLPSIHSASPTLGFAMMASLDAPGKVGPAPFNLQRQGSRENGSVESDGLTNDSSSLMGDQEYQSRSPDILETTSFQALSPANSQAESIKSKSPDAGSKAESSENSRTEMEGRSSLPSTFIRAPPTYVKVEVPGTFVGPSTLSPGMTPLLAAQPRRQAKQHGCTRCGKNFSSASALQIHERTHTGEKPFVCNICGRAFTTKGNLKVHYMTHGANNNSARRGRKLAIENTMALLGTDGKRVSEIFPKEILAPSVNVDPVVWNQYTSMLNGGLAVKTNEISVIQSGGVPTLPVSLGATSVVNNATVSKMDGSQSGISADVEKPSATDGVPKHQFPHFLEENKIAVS
Setting: 8-mer, flanks averaged, mean of replicates
AGTAGGAG: -0.246
CCAGCAGC: -0.287
GGGCGAAC: -0.186
AGAAGACT: -0.0287
CTGCCAGC: -0.178
GCAACCTA: -0.0209

Study 3 — method: RNA Bind-n-Seq; molecule type: RNA; sample: in vitro; concentration: not given; baseline: input RNA pool; reading: higher = stronger binding; measurement: bound/input enrichment
Target: RING finger protein unkempt homolog, zinc fingers 1-6, GST-SBP tag (UNK, Homo sapiens, UniProt Q9C0B0, residues 30-357)
Sequence of UniProt Q9C0B0 (30-357, looked up): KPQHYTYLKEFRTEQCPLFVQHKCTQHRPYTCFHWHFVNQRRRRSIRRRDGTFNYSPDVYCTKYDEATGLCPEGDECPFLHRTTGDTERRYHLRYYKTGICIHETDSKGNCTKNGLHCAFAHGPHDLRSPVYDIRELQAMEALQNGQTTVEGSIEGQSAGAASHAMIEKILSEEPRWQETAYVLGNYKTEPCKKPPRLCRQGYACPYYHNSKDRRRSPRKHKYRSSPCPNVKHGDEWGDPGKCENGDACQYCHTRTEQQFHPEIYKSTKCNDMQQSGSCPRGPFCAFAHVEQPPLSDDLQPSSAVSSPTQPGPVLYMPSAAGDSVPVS
Setting: RNA with constant flanks, human and mouse sites, ends assumed
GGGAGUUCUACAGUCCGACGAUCGACCGAAACCCCUACUAUGGGGGUGAGAGCUCUUCCAUCACACCCCUGGAGGAGCUAUAUAAGCGCUUUCAGAUACUGGAAGGGCCCCCUGAAUCAAUGGGCCGGGGCCGAGACUGGAAUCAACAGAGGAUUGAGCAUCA: 0.192 ratio
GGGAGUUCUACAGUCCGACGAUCGUCUGUCUCAAGGGUACUUAAGCAGCAGAGACCCCUGAAUAUAGGGAUUCUACCUUUUCUUUUAGAAUGGGACUUUUCUAGUGUGAGUGUCUAGGUUGGAUAGGAGACCUUGCCAAAUUCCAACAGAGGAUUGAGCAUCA: 0.698 ratio
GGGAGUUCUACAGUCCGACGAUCUACAUGGGCUCACAGAAGCAAUUUAAAAUUACCAAACUCUCACCAGCAAUGGGUUGUAAAUUUAGAUUAUCAGCCAAAAAUGACUAUGGUGUAAGUGAUUUUAGUGAAGAGGUCCUGUACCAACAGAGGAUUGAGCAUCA: 0.15 ratio
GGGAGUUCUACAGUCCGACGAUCGUCCCUGCCCUGCUGUACCCCGCUCCUUGGAGACCCCCUGUAUCCCUCCCGCAAGGUGGAAUCCGCAGGCUGGAGGCUCCCAGGGGAGGCAAACGCCUGGCCCUGCCCUGCCCCACGCCGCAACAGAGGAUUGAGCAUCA: 0.44 ratio
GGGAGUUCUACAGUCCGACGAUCGGGUUAUAUCAAUAUAAGAACAUAUGCCAACAGGUAAACAUUAAAUCUUUAGAAGAUGUUGUUAGGGCAUAUUUGAAAUUAGCAGAGGAAAAAACAGAAGCUGCUAAAGAAGAGUCCCAACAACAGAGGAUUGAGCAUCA: 1.14 ratio
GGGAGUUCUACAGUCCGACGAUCCCUCAGGCUGUGCAAAGGACACUGAGAGCCUCUUCCACAUAGAAAUACUCUGCUCUCGUAGCCUCUGGAAAGGCCCUGCAGCCCGACAUUGCUGUAGAGCUGGAGGAUCCGUGAGAUGAGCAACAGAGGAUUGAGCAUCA: 0.301 ratio

Mixed results
PhoQ, residues 284 288 289 292 302 303 SSTMSV
fold induction (PhoP, residues 12 14 15 18 19 QYCSL (Escherichia coli, UniProt P23836); Sort-seq, item: YFP reporter; E. coli; PhoQ-PhoP variant library, added: 10 µM Mg2+; baseline: high Mg2+ state, higher = stronger signaling): 1.69
